# Results of several laboratories.
# Each line is one published result; not all experiments were run side by side. No end group written: not given here.
# B1: Reg2 (Mus musculus, UniProt Q08731); sequence looked up; chain QVAEEDFPLAEKDLPSAKINCPEGANAYGSYCYYLIEDRLTWGEADLFCQNMNAGHLVSILSQAESNFVASLVKESGTTASNVWTGLHDPKSNRRWHWSSGSLFLFKSWATGAPSTANRGYCVSLTSNTAYKKWKDENCEAQYSFVCKFRA
# B2: UGT1A9 (Homo sapiens, UniProt O60656); chain GKLLVVPMDGSHWFTMRSVVEKLILRGHEVVVVMPEVSWQLGRSLNCTVKTYSTSYTLEDLDREFKAFAHAQWKAQVRSIYSLLMGSYNDIFDLFFSNCRSLFKDKKLVEYLKESSFDAVFLDPFDNCGLIVAKYFSLPSVVFARGILCHYLEEGAQCPAPLSYVPRILLGFSDAMTFKERVRNHIMHLEEHLLCHRFFKNALEIASEILQTPVTEYDLYSHTSIWLLRTDFVLDYPKPVMPNMIFIGGINCHQGKPLPMEFEAYINASGEHGIVVFSLGSMVSEIPEKKAMAIADALGKIPQTVLWRYTGTRPSNLANNTILVKWLPQNDLLGHPMTRAFITHAGSHGVYESICNGVPMVMMPLFGDQMDNAKRMETKGAGVTLNVLEMTSEDLENALKAVINDKSYKENIMRLSSLHKDRPVEPLDLAVFWVEFVMRHKGAPHLRPAAHDLTWYQYHSLDVIGFLLAVVLTVAFITFKCCAYGYRKCLGKKGRVKKAHKSKTH
# B3: rof 1-84 D14A (Escherichia coli, UniProt P0AFW8); chain MNDTYQPINCDDYANLELACQHHLMLTLELKDGEKLQAKASDLVSRKNVEYLVVEAAGETRELRLDKITSFSHPEIGTVVVSES
# B4: MICA extracellular domain 24-299 (Homo sapiens, UniProt Q29983); sequence looked up; chain EPHSLRYNLTVLSWDGSVQSGFLTEVHLDGQPFLRCDRQKCRAKPQGQWAEDVLGNKTWDRETRDLTGNGKDLRMTLAHIKDQKEGLHSLQEIRVCEIHEDNSTRSSQHFYYDGELFLSQNLETKEWTMPQSSRAQTLAMNVRNFLKEDAMKTKTHYHAMHADCLQELRRYLKSGVVLRRTVPPMVNVTRSEASEGNITVTCRASGFYPWNITLSWRQDGVSLSHDTQQWGDVLPDGNGTYQTWVATRICQGEEQRFTCYMEHSGNHSTHPVPSGK
# B5: erenumab; V domains shown; sequence looked up; VH QVQLVESGGGVVQPGRSLRLSCAASGFTFSSFGMHWVRQAPGKGLEWVAVISFDGSIKYSVDSVKGRFTISRDNSKNTLFLQMNSLRAEDTAVYYCARDRLNYYDSSGYYHYKYYGMAVWGQGTTVTVSS; VL QSVLTQPPSVSAAPGQKVTISCSGSSSNIGNNYVSWYQQLPGTAPKLLIYDNNKRPSGIPDRFSGSKSGTSTTLGITGLQTGDEADYYCGTWDSRLSAVVFGGGTKLTVL
# B6: TIMP3 24-144 (Homo sapiens, UniProt P35625); sequence looked up; chain CTCSPSHPQDAFCNSDIVIRAKVVGKKLVKEGPFGTLVYTIKQMKMYRGFTKMPHVQYIHTEASESLCGLKLEVNKYQYLLTGRVYDGKMYTGLCNFVERWDQLTLSQRKGLNYRYHLGCN
# B7: PLEKHA3 (Homo sapiens, UniProt Q9HB20); sequence looked up; chain MEGVLYKWTNYLTGWQPRWFVLDNGILSYYDSQDDVCKGSKGSIKMAVCEIKVHSADNTRMELIIPGEQHFYMKAVNAAERQRWLVALGSSKACLTDTRTKKEKEISETSESLKTKMSELRLYCDLLMQQVHTIQEFVHHDENHSSPSAENMNEASSLLSATCNTFITTLEECVKIANAKFKPEMFQLHHPDPLVSPVSPSPVQMMKRSVSHPGSCSSERSSHSIKEPVSTLHRLSQRRRRTYSDTDSCSDIPLEDPDRPVHCSKNTLNGDLASATIPEESRLMAKKQSESEDTLPSFSS
# B8: MSH4 S2A/S4A/S7A/S41A/T43A/S46A (Saccharomyces cerevisiae, UniProt P40965); sequence looked up; chain MAEANLASFISTNYFNLRSAANSSNSISKPSTKKSIRNQKAPANIASWALKKKTLQIAETTWENNEKDSTHSHYLMTGSMASRTATSLSRYSTNASLLGPSIDCVLCCIYEVPRDISTRIGLCIINCNTGQMYLSDFMDSQIYIRVVHKLQIYQPTEILIPSSSLAPTVSKLATMIKFNVAETVKIEEGSRKCFNSQDGLAAITKYLMDDTKKDLKIEEIIDKTFALCAASAAISYMEEIISKSSRNLNAFRKLRIQFEGTENTMLIDSKTVRGLELVENKLDKNGISLWKFLDTTSTKMGQRSLRNSILQPLTDRGSIEMRLEALEELKANDDLLQKLRLEMKSLPDLDKLFSRLLCINHSAIKPDQRINYVLLLKETLQSVKSLKDALNDQLIQSRLISETKKIFNNDAIMEIEKLINSCINEDCVWASSAIQLLNQRSYAVKSDSNGLLDVSRQIYKEVKEEFFREVEDLTAKNKINLDHNYDSARGFYLRIKRQEFTDDVATLPDVFISRTIKKNYIECTTLNIIKKNARLKEVMEEILLLSEETVDELLDKIATHISELFMIAEAVAILDLVCSFTYNLKENNYTIPIFTNNLLIRDSRHPLLEKVLKNFVPNTISSTKHSSSLQIITGCNMSGKSVYLKQVALICIMAQMGSGIPALYGSFPVFKRLHARVCNDSMELTSSNFGFEMKEMAYFLDDINTETLLILDELGRGSSIADGFCVSLAVTEHLLRTEATVFLSTHFQDIPKIMSKKPAVSHLHMDAVLLNDNSVKMNYQLTQKSVAIENSGIRVVKKIFNPDIIAEAYNIHSLLKIAKARTENEDSNGVVDQKTINQMKRIHNLVAILKECAGNEKEPLTLGKLKEINSDFIENFEE
# Sequence of UniProt Q05152 (whole entry, unmodified, looked up): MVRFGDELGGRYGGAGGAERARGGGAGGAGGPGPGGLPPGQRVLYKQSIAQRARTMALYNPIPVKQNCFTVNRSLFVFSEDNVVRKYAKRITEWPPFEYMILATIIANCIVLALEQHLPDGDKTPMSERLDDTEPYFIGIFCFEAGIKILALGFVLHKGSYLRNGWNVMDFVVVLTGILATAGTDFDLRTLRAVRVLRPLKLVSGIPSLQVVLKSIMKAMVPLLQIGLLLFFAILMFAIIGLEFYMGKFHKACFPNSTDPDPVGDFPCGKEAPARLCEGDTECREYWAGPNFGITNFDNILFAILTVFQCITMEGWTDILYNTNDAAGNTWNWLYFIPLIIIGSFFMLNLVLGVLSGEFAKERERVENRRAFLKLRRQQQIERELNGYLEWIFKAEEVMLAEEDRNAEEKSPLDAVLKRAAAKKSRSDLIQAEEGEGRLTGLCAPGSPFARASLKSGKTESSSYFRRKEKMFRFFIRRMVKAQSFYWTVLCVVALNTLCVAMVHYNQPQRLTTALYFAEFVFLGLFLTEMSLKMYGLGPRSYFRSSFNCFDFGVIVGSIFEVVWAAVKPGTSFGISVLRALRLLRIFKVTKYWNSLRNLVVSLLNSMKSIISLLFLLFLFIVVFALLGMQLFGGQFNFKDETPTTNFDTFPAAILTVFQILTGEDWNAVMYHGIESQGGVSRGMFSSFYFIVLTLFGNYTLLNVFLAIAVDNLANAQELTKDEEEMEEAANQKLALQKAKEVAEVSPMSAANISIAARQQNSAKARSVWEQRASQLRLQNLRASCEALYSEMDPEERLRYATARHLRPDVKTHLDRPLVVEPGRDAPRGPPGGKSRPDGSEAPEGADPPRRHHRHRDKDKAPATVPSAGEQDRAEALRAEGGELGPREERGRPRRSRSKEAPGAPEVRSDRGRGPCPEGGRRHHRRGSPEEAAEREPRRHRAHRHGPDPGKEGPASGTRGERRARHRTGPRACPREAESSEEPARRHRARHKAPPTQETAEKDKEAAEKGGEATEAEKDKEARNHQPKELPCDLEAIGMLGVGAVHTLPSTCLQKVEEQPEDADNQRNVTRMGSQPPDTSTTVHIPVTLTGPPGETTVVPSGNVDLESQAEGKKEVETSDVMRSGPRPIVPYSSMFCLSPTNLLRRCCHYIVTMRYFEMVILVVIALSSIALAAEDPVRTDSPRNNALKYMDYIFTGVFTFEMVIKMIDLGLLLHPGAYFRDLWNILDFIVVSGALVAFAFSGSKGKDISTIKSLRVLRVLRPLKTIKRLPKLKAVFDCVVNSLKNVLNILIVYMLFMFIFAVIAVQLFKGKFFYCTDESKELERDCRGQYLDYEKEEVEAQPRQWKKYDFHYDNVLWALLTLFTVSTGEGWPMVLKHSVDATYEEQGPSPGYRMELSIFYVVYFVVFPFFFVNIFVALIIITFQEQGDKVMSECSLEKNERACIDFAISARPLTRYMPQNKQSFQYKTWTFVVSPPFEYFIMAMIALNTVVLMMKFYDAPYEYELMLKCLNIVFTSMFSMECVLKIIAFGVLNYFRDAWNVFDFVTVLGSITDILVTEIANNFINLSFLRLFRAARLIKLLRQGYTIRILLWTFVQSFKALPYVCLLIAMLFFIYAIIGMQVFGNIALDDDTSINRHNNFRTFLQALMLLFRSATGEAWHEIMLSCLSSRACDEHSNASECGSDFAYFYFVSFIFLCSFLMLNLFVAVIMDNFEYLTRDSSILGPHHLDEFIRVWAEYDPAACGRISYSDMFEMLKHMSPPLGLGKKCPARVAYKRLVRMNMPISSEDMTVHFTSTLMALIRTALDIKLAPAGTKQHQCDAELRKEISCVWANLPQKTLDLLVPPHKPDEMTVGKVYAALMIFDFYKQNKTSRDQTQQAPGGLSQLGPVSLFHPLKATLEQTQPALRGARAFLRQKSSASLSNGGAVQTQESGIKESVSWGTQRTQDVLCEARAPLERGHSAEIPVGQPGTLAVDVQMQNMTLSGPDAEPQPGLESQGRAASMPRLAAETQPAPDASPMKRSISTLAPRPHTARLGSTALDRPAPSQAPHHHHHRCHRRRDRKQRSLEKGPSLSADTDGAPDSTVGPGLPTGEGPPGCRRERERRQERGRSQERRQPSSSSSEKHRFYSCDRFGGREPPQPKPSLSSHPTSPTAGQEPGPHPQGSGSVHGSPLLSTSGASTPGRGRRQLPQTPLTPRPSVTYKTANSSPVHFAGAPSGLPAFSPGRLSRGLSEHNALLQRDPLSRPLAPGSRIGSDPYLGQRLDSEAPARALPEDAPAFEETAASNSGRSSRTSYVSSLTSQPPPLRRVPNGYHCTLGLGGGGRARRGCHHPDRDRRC
# Sequence of UniProt Q8CFN5 (whole entry, looked up): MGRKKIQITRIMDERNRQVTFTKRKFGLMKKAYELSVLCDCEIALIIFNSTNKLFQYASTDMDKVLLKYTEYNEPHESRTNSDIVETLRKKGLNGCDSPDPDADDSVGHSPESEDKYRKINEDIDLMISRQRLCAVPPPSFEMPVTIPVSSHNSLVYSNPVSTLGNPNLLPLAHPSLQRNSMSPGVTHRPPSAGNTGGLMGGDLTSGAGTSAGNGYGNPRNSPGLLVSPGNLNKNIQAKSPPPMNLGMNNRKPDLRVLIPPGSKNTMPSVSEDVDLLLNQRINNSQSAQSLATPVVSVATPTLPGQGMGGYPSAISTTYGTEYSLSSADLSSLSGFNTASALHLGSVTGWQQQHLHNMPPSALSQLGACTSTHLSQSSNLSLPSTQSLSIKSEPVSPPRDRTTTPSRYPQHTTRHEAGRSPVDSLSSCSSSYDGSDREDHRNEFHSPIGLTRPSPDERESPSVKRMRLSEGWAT
# Sequence of UniProt P0AGE0 (whole entry, looked up): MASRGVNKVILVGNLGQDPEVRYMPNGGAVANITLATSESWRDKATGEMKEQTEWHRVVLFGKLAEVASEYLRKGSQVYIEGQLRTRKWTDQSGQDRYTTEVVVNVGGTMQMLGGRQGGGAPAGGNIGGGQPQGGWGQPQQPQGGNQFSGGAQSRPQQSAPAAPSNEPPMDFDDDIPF
# Sequence of UniProt P26718 (whole entry, looked up): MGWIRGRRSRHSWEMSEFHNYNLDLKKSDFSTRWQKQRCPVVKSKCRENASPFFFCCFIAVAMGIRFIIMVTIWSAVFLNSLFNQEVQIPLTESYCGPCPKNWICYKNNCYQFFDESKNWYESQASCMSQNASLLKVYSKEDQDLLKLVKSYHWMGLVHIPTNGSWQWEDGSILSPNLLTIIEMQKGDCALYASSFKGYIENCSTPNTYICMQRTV
# Sequence of UniProt Q9NTJ5 (whole entry, looked up): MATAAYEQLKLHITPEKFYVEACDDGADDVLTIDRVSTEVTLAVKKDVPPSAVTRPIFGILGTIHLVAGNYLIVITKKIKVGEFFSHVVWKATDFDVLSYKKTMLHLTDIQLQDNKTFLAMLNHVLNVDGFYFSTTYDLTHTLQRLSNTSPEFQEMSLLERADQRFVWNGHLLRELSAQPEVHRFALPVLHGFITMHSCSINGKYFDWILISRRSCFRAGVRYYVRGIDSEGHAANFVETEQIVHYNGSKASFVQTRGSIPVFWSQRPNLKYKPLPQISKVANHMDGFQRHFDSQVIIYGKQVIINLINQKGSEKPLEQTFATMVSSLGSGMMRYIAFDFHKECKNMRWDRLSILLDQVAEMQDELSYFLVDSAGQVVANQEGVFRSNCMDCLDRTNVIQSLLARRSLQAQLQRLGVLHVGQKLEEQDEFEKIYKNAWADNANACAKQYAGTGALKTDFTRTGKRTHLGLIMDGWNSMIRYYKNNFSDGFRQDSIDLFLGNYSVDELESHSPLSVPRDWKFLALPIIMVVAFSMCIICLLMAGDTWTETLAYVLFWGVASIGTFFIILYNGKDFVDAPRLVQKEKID
# Sequence of UniProt P23818 (whole entry, looked up): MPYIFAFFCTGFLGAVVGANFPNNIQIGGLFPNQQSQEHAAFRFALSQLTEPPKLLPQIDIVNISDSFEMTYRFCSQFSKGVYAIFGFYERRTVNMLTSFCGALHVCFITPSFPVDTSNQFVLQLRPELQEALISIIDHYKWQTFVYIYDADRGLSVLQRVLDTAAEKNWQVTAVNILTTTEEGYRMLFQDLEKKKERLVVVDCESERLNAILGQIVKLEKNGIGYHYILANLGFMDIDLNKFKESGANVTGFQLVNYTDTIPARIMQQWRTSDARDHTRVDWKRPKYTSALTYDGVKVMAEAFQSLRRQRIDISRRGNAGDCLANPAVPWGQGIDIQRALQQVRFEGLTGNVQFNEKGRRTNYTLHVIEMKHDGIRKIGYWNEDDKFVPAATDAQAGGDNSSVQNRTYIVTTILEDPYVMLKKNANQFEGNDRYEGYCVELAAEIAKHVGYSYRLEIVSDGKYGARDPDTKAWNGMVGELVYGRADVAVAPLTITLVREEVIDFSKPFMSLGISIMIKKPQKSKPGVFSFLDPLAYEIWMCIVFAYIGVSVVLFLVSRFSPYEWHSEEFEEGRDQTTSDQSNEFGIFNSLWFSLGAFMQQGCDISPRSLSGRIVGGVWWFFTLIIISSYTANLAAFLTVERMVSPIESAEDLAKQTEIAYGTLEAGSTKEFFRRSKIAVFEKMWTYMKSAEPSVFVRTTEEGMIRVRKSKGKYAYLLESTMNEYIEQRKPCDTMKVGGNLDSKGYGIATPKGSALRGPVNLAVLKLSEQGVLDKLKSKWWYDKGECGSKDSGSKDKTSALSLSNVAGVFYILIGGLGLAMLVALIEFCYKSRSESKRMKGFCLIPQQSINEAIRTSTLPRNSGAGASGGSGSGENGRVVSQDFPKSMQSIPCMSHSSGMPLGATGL
# Sequence of UniProt P25156 (whole entry, looked up): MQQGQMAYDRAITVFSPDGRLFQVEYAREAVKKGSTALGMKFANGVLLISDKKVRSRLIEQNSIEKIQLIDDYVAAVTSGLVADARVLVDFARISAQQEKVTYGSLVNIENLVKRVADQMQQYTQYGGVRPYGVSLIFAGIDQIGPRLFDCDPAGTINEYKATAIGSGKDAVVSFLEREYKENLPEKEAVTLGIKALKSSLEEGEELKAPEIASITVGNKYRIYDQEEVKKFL
# Sequence of UniProt P00429 (whole entry, looked up): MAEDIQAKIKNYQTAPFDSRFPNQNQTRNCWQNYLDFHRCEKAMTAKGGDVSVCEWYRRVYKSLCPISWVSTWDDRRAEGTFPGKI
Molecule,target or system,test,system,setting,scale,measurement,value
B1 (Reg2),"Cacna1c (Mus musculus, UniProt Q01815)",AP-tagged ligand binding,beta TC3,,"baseline: vector-only cells, higher = more binding",AP staining,1.4 fold
KIF15 Coil-1 (Homo sapiens),"tubulin alpha/beta microtubules, E-hook removed (Bos taurus)",optical trap rupture assay,,,,bond lifetime under load,5.2 s
"CALM1 holo (Homo sapiens, UniProt P0DP23)","Nos1 (Rattus norvegicus, UniProt P29476)",optical stopped-flow,,"CaM pre-incubated, with: NADPH, holo CaM",,"flavin reduction rate, first phase",313 s⁻¹
"Gli2 (Mus musculus, UniProt Q0VGT2)","Mef2c (Mus musculus, UniProt Q8CFN5)",co-IP,P19,,"baseline: P19-TAP, higher = more Gli2 pulled down",relative binding,5 fold
TIMP2 N-terminal domain S4E/V6R/V18M/I35V/N38Q/S68N/V71N/H97R,MMP14 fragment (Homo sapiens),"fluorogenic substrate cleavage, inhibitor, enzyme inhibition assay",,apparent,,Ki,0.89 nM
"COX6B1 (Bos taurus, UniProt P00429)","cytochrome c oxidase eight-subunit core (Bos taurus, UniProt P00396)","anion exchange chromatography, RP-HPLC, SDS-PAGE",,"10 min, pH 7.2, room temperature, apparent, single transition fit",,urea midpoint for subunit dissociation,3.7 M
"Rnf220 (Mus musculus, UniProt Q6PDX6)","Gria1 (Mus musculus, UniProt P23818)",GluA1 polyubiquitination,HEK293,,"baseline: control without RNF220, higher = more ubiquitination",polyubiquitination level,4.41
B2 (UGT1A9),CN1CC[C@H](c2c(O)cc(O)c3c(=O)cc(-c4ccccc4Cl)oc23)[C@H](O)C1,steady-state kinetics,,"pH 7.4, 37 °C",,Vmax,0.000219 µmol/min/mg
TP53 R172H (Mus musculus),"Creb1 (Mus musculus, UniProt Q01147-1)",proximity ligation,PDAC,KRAS knockdown,"baseline: control siRNA, higher = greater loss of interaction",reduction of PLA signal,64%
Atp1a1 F97A/F100A (Rattus norvegicus),"CAV1 (Sus scrofa, UniProt Q6RVA9)",co-IP,"AAC-19, lysate",,"baseline: AAC-19 cells, higher = greater decrease",coprecipitated α1,> 80%
PTH fragment (Homo sapiens),"PTH1R (Homo sapiens, UniProt Q03431)","arrestin3 BRET, agonist",HEK293,2 min,,EC50,30 nM
"clusterin, methionine sulfoxide (Homo sapiens, UniProt P10909)",APP Aβ42 (UniProt P05067),ThT fluorescence,,"0.3 µM, 37 °C","baseline: Aβ42 or BSA alone, higher = more fibrillation",maximal Aβ42 fibrillation,76%
B3 (rof 1-84 D14A),"rho 1-419 (Escherichia coli, UniProt P0AG30)","rho termination, inhibitor",,,lower = more inhibition,terminated transcripts,86%
"ssb (Escherichia coli, UniProt P0AGE0)","recQ (Escherichia coli, UniProt P15043)","active unwinding time fraction, magnetic tweezers",,,higher = greater,effective affinity ratio,1.33 ratio
"FGF2 (Homo sapiens, UniProt P09038)","FGFR3 isoform IIIc (unknown, UniProt Q61851)","cell proliferation, MTT",BaF3-FGFR3c,"20 nM, 48 h, with: 2-O desulfated heparin 4.9 µg/mL","baseline: FGF 1 with heparin, higher = more proliferation",cell proliferation,87%
B4,"KLRK1 (Homo sapiens, UniProt P26718)",micropipette adhesion frequency,,,"baseline: ULBP3 at zero force, higher = longer lifetime",bond lifetime ratio,1.45 fold
SGRGK(Ac)GGKGL (histone H4 residues 1-10; acetylated K5),"ATAD2 bromodomain 981-1108 C1101A, Cys1057-Cys1079 disulfide (Homo sapiens, UniProt Q6PL18)",ITC,peptide,"pH 7.0, 5 °C, NaCl 150 mM, fully formed disulfide",,molecule per partner,1.26
4EHP (Drosophila melanogaster),"Gyf (Drosophila melanogaster, UniProt Q7KQM6)",F-Luc reporter activity,S2 cells,tethering,"baseline: λN-HA alone, lower = more repression",reporter activity,20%
CXCL10 (UniProt P02778),"CXCR3 (Homo sapiens, UniProt P49682)","inhibition of forskolin-raised cAMP, agonist",HEK293,,,LogEC50,-10
"ACTA1 filaments (Oryctolagus cuniculus, UniProt P68135)",MYO1A/calmodulin (Gallus gallus),"MgATPase activation, steady-state kinetics",,with: EGTA,,Km of actin,40 µM
"TPDYAMQLMNDKKLMSSLPNFSGIFNHLERLLDEEISRVRKDMYNDTLNGSTEK (Qki 14-67 C35S/L18A (Mus musculus, UniProt Q9QYS9))",itself,CD thermal melting,,50 µM,,melting temperature,49 °C
"CYCS (horse, UniProt P00004)","CcP/MBP, two covalent hemes (Shewanella oneidensis)",steady-state kinetics,,"oxidized, MBP-fused, with: electron donor 4 µM",,peroxide turnover rate k1,1.6 s⁻¹
"Camk2a, pT286 (Mus musculus, UniProt P11798)",Cacnb2 β2a L493A (Rattus norvegicus),plate-binding assay,,L493A mutant,"baseline: wild-type His-β2a, higher = greater reduction in binding",relative binding,50%
sodium channel protein (Rattus norvegicus),H2-D1/B2m (Mus musculus),flow cytometry,RMA-S,,,half-life,< 1 h
B5 (erenumab),CALCR/RAMP1 on cells (Homo sapiens),"cAMP production, antagonist","antibody, HEK293S","no preincubation, with: αCGRP 3 nM",,pIC50,5.77
"RGS1 (Arabidopsis thaliana, UniProt Q8H1F2)","GPA1 (Arabidopsis thaliana, UniProt P18064)",single turnover GTPase assay,nanodiscs,,,GAP activity per molecule,0.00024 min⁻¹ pmol⁻¹
B6 (TIMP3 24-144),"ADAMTS5 262-930 (Homo sapiens, UniProt Q9UNA0)","inhibitor, steady-state kinetics",,"1 h, 37 °C, apparent, tight-binding fit",,Ki,0.14 nM
B7 (PLEKHA3),"SACM1L 1-522 (Homo sapiens, UniProt Q9NTJ5)",Sac1 activity,liposomes,,"baseline: artificial tether, higher = more activity",relative phosphatase activity,10 fold
"QDQGLYL (VAT 739-745 (Thermoplasma acidophilum, UniProt O05209))","20S proteasome core particle (Thermoplasma acidophilum, UniProt P25156)","LFP hydrolysis, activator",peptide,"0.6 nM CP, 59 °C","baseline: TaCP alone, higher = more fluorescence",peptide hydrolysis,2 fold
CACNA1B fragment (Oryctolagus cuniculus),"CACNA1B 56-2339 (Oryctolagus cuniculus, UniProt Q05152)",IBa,Xenopus oocytes,,,current inhibition,50 % inhibition
B8,"MSH5 (Saccharomyces cerevisiae, UniProt Q12175)",co-IP,,,"baseline: wild-type cells, higher = lower efficiency",relative complex formation,2.6 fold
"REC104 (Saccharomyces cerevisiae, UniProt P33323)","SPO11 (Saccharomyces cerevisiae, UniProt P23179)",SEC-MALS,,,,molecule per partner,1
HSDGTFTSELSRLREGARLQRLL (SCT 1-23 (Homo sapiens)),"SCTR SNAP-tag fusion, Lumi4-Tb label on SNAP-tag (UniProt P47872)","Ca2+ flux, agonist","peptide, CHO-K1",,,EC50,581 nM
NRTN fragment E135S/R139S (Homo sapiens),"RET 29-635 (Homo sapiens, UniProt P07949)","MAPK signaling, SRE luciferase reporter, agonist",TGW neuroblastoma,,,EC50,3.2 ng/mL

# A few entries again:
Molecule,target or system,test,system,setting,scale,measurement,value
"FGF2 (Homo sapiens, UniProt P09038)","FGFR3 isoform IIIc (unknown, UniProt Q61851)","cell proliferation, MTT",BaF3-FGFR3c,"20 nM, 48 h, with: 2-O desulfated heparin 4.9 µg/mL","baseline: FGF 1 with heparin, higher = more proliferation",cell proliferation,87%
"REC104 (Saccharomyces cerevisiae, UniProt P33323)","SPO11 (Saccharomyces cerevisiae, UniProt P23179)",SEC-MALS,,,,molecule per partner,1
"clusterin, methionine sulfoxide (Homo sapiens, UniProt P10909)",APP Aβ42 (UniProt P05067),ThT fluorescence,,"0.3 µM, 37 °C","baseline: Aβ42 or BSA alone, higher = more fibrillation",maximal Aβ42 fibrillation,76%
"COX6B1 (Bos taurus, UniProt P00429)","cytochrome c oxidase eight-subunit core (Bos taurus, UniProt P00396)","anion exchange chromatography, RP-HPLC, SDS-PAGE",,"10 min, pH 7.2, room temperature, apparent, single transition fit",,urea midpoint for subunit dissociation,3.7 M
4EHP (Drosophila melanogaster),"Gyf (Drosophila melanogaster, UniProt Q7KQM6)",F-Luc reporter activity,S2 cells,tethering,"baseline: λN-HA alone, lower = more repression",reporter activity,20%
